Published values from different studies.
Every numbered part comes from another study and shows a few of its results, in no order. Substitutions count along the parent as printed.

Set 1 — target: JUN, bZIP domain (human); method: DHFR protein complementation; sample: yeast; relative to: wild-type JUN-FOS pair; reading: higher = stronger binding; measurement: binding fitness
Notes: single substitutions, most at no-binding floor
Parent: JUN, bZIP domain (human); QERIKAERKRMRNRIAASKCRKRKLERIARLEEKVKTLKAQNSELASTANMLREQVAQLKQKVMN; partner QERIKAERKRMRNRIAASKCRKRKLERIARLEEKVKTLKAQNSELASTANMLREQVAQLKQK
E33I: -0.529 natural log
R53A: -0.381 natural log
A46S: -0.27 natural log
A40C: -0.526 natural log
E33F: -0.545 natural log
T48K: -0.423 natural log
E33Y: -1.09 natural log
V35A: -0.746 natural log

Set 2 — method: DHFR PCA, deep sequencing; sample: yeast; together with: (+)-ABA 2500 µM; relative to: wild-type fitted maximum; reading: higher = stronger binding; measurement: relative binding score
Target: ABI1, truncated, D143A, DHFR fusion (Arabidopsis thaliana)
Notes: methotrexate growth selection, single substitutions
Parent: PYL1, truncated, DHFR fusion (Arabidopsis thaliana); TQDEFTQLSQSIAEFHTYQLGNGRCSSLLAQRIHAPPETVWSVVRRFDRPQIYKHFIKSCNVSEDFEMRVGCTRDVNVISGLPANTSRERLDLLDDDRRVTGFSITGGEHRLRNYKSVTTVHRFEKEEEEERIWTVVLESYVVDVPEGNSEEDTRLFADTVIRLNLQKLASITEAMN; partner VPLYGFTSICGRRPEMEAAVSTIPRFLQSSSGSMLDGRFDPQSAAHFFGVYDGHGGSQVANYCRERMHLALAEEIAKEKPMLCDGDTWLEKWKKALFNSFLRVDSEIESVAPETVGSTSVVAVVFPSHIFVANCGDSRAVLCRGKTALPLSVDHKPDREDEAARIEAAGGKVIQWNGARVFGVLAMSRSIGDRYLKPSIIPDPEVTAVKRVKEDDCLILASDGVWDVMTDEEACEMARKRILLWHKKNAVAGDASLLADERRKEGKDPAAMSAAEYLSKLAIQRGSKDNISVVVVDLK
D159L: 47.9%
G71R: 79.3%
H34D: 94.6%
T160D: 17.6%
P146G: 89.1%
Y115S: -6.43%
L138M: 104%
S63F: 86.5%

Further values, each from its own experiment
NUP98 (Homo sapiens, UniProt P52948)  cross-linked residues (NUP205 (Homo sapiens, UniProt Q92621); cross-linking MS; cell fractions; together with: DMTMM): K563 to E161
CCC(C)c1ccccc1OCCn1cnc2ccccc21 (stereo not drawn)  remaining compound (human, microsomes or S9; 2 µM, 0.5 h): 0.0533%
